Measured values collected from several papers.
Numbered parts are unrelated; each lists some results of a single study.

Block 1 — method: protein-binding microarray; form: double-stranded DNA, one strand shown; matrix: in vitro; tested at: 250 nM; notes: 60-bp whole probe; together with: salmon DNA 0.4 mg/ml; baseline: random background probes; direction: higher = stronger binding; all sequences stand within: GCCTAGCAC … GTCTTGATTCGCTTGACGCTGCTG
Target: Interferon regulatory factor 5, full length, phosphomimetic (IRF5, Homo sapiens, UniProt Q13568-2, residues 1-514, K96S/S451D/S453D/S456D/S462D)
Sequence	log fluorescence
GACGATTTCGGGTCTCGAGACGTGCTA	3.19 z-score
TTCGATTTCAGTTTCGATTAGTGCTAG	10.6 z-score
CTGGTCCTCCTGACTGGGGTGGTGCTA	-0.281 z-score
TCACTTTTTTTAATTGAACTGTGCTAG	0.928 z-score
TCATAAATCTTTTTCCCACTGTGCTAG	0.814 z-score
GACGAACTGGAGTTTCGAGACGTGCTA	3.25 z-score
GACGATCTGGGGTTTCGAGACGTGCTA	0.982 z-score
ACCCGTACTGGGTCTGGATCGTGCTAG	-0.382 z-score
TTAGGTATCGGGTTTTGGTTAGTGCTA	3.92 z-score
TCAGCTTTCCAATTCTCACTGTGCTAG	0.692 z-score
GACGGTCTCCTTATCCTTACGTGCTAG	0.0236 z-score
GACGATCTAAGACTGGAGACGTGCTAG	-0.139 z-score
TTAGGTATCATTCTCCTTTAGTGCTAG	1.3 z-score
GACGGTTTCGGGAATGGGGACGTGCTA	5.27 z-score
GACGGACCGCTTCTCCTGACGTGCTAG	-0.544 z-score
TTAGGACGGGGTTTCGGTTAGTGCTAG	6.9 z-score
TTAGATTTCAGTTTCGACTAGTGCTAG	8.8 z-score
GACGCTATCAGACTGGAGACGTGCTAG	0.0692 z-score
GGCGGTTTCCTTTTCCTGACGTGCTAG	1.31 z-score
TTAGGGTTCGGTATCGGTTAGTGCTAG	4.98 z-score
GACGGTCTCCTTATCGTGACGTGCTAG	-0.275 z-score
AGTGGAGTTCATTGTCATTTGTGCTAG	0.337 z-score
TTAGGACTGCTACTGCTTGAGTGCTAG	-0.454 z-score
TCATGTTTCTTCTGCTGACTGTGCTAG	1.19 z-score
GACGGTATCCTTATTCTGACGTGCTAG	-0.00592 z-score

Block 2 — method: protein-binding microarray; form: double-stranded DNA, one strand shown; matrix: in vitro; tested at: not given; direction: higher = stronger binding
Target: Protein C-ets-1 (ETS1, Homo sapiens, UniProt P14921, residues 1-441, Y397A, full length assumed)
Chain of UniProt P14921 (whole entry, unmodified, looked up): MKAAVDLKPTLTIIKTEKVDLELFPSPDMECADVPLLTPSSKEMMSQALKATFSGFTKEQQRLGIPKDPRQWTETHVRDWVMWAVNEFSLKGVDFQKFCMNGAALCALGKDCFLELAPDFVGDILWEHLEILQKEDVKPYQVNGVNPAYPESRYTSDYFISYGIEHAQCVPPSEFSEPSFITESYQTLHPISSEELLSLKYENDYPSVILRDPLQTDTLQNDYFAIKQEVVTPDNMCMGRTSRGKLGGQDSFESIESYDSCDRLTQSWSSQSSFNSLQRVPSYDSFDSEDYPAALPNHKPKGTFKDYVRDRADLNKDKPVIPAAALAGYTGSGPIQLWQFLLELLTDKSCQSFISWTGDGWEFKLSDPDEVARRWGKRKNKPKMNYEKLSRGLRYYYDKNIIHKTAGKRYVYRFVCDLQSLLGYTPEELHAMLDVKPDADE
Notes: k-mer, scored over probes, only values ≥0.25
Sequence	E-score
ATACTGCA	0.253
ACAAAAAG	0.256
GCAAACGC	0.289
AGGCAAAC	0.318
CAATTGTC	0.406
ACACGTCA	0.261
CACCGGAA	0.401
ATGCCAAA	0.275
ACACAAAC	0.304
AATGTCAC	0.273
ATCACATC	0.261
ACGGAAAC	0.268
GGAAGCAC	0.251
TGTAACAA	0.257
ACATTGTC	0.374
GTGTGTCA	0.263
ACGCGTCG	0.265
CTTTGTCA	0.34
CGTCGTTC	0.282
CATATCCG	0.379
TTGGCAAA	0.433
AACGTAAT	0.257
CAACAGCA	0.291
CAACAATG	0.312
ACATGTAG	0.284

Block 3 — method: RNA Bind-n-Seq; form: RNA; matrix: in vitro; tested at: 365 nM; baseline: no-protein control; direction: higher = stronger binding
Target: RNA binding protein fox-1 homolog 2, RRM domain, GST-SBP tag (RBFOX2, Homo sapiens, UniProt O43251-10, residues 100-194)
Notes: natural RNA segment, single round, ends assumed
All sequences stand within: GGGAGUUCUACAGUCCGACGAUC … UGGAAUUCUCGGGUGCCAA
Construct (chain): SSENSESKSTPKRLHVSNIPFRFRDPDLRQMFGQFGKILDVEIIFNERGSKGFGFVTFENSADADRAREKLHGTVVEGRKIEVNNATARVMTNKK
Sequence	RBNS enrichment (R)
ACUGCUUCACCCUUCACAGAUUUAAUACAAUGUAUAAGCCUUACUUUCAUAACAUAUUCUACAAGUUUCCUUAAGACUGUUGUUAUAGUCUGGCUGAACCCAUUUCCACC	0.351
UGAUUCAACUCUCAAUUUUCUUUAUGCAUCAUGGUAAAGCAUUGCAGCAGUGUUGUUUUGUUUGAAGUGCACACUCUAUGGUACGAGGUGUUUAGUAUACCCAAGCAGAU	0.472
GGAGACUGUAGCAAGUAAGGCUAGAGAACACUUGCUCUUUACCUAGUGGUGGCGGUCACGCUAACACGUGUGAAAGGCCUUUGGCAUUUUUUAAAAAGUGCAAUCAAUAA	0.298
CCAGAAUUUUCUUGAUUGUUACUUUCAGUGAUAUUCUUUAUAUUGGGUACAGGAGAAGUUUGGUGUUUGGUAGGUUUUUCAACAUUAGUUUUUGAGACUAGUUUACCUCU	0.428
CUACUUUGGCAGGGGAGGGGGACAAAUGGUGGUACCUACAGAGCUCUGCAUGAAGUAGGGACCCCACACUAGAUAACCCCUCUUGUAAAGUAUGAGCCCAUCUCACUGGG	5.61
CUUUGCAUCAUGUUAGCCAGCCAGUAUUUACUCAUUGUUAGGAAAAUCGAGCUGUGGCUGAAGACCCGAGGCUCAGUUAGCAACCUCUGUUGUAGCUGUCAACCCAUUGG	1.05
UUUACUGGGGAAAGUGCAUCUGGCCAAAUGAUAGGAUAGUCAAGCCUAUUGCAACAAAAUUAGGAAGUUUGUUGUAUAAAUAAGCAUGUAAAAGUGCACUUAAAAUGAAU	3.61
AAAUGCUUAAGGACAUGCUAGGGGAAAAAAAAGUAAAAUUGAAGUGCUAUUGCAGACAUGGCUGCAGUACUGUACCUUAUCAUUCUGAUGAAACUGAUUUGGAGCACCCU	0.948
GCCACCUUUGCUUCCCGCUCCUUCUGGACAUUCCAGAGCCCUGCACCAAACCCUUACUUGGUGUCUGCACCUCCUUUCCCUCUCUCCAUCUUCCAAUCCCUGGAAAAGUC	0.815
UUGAGUUUUUGCAGUUCAGUAUCCCUCUGUCUAUUCACACUUCGUGUUAGUGGUAACUCAGUUUGUCUUUAAAUAGUUACAGAAGGGAUACGUCAUUUGUUAAUGCUUUU	0.495
UCCUCUGAUAUGCCUUGUAGCUAAGAUUUAAAAGACUGUUGAACAUAGAUGAGGGGUAUGCAUUUCUUAAAAAUCCAUGAACCCUCAAUUGUAUGCUUUCAGUAUUGUGU	3.41
UGGUCUGUGUCACCGUAUCUCAGGAAGUCCAGCCACUUGACUGGCACACACCCCUCCGGACAUCCAGCGUGACGGAGCCCACACUGCCACCUUGUGGCCGCCUGAGACCC	0.263

Block 4 — method: RNA Bind-n-Seq; form: RNA; matrix: in vitro; tested at: 1 µM; notes: whole 134-nt RNA, ends assumed; together with: 150 mM KCl; baseline: input library; direction: higher = stronger binding
Target: Ras GTPase-activating protein-binding protein 1, C-terminal RGG region (G3BP1, Homo sapiens, UniProt Q13283)
Chain of UniProt Q13283 (whole entry, looked up): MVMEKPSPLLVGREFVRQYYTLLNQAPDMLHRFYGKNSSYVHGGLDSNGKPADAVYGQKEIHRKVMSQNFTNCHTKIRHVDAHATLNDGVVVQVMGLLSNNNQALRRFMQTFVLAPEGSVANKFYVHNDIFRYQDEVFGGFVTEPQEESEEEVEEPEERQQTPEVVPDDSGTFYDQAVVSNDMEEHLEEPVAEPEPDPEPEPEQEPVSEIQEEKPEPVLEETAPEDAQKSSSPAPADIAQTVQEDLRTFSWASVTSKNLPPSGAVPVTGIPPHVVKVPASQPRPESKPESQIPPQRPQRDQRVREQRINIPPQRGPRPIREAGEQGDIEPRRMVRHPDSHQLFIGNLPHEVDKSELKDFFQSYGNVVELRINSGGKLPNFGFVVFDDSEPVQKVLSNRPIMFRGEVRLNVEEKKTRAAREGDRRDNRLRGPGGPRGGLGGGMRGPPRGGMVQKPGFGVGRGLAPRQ
All sequences stand within: GGGAGUUCUACAGUCCGACGAUC … UGGAAUUCUCGGGUGUCAAGG
Sequence	log2 enrichment
UCAAGUCCUGUGCUACACAUCGUAUGUACCGAAUCGGCCCGGGCCCGGCCCGGGGAAAGUAUUAUGUUACGCCGUUCGGAUCUGCACUUC	-2.1
CACAGACAACACGCACCCACACAGACACAGAGGGAAGGGGUUGGGAUGGGGACCGGGUGCACAGCAGGGCGGGGUAGGACCCCAGCCCCU	0.531
CUCAAGUCCUGUGCUACACAUCGUAUGUACCGAAUCGGGGAAGGAAGGGAAGGAAAGUAUUAUGUUACGCCGUUCGGAUCUGCACUUCCA	-1.17
UCCUGUGCUACACAUCGUAUGUACCGAAUCGGGGAAAAAGGGGAAAGGGGAAAAAGGGGAAAGUAUUAUGUUACGCCGUUCGGAUCUGCA	1.51
GUCCUGUGCUACACAUCGUAUGUACCGAAUCGGAAAAAGGGGAAAAAGGGAAAAAGGGGAAAGUAUUAUGUUACGCCGUUCGGAUCUGCA	-0.742
UGGCCCUGGUGGCAUGCGGGGAGGAAGAGGUGGCCUCAUGGAUCGUGGUGGUCCCGGUGGAAUGUUCAGAGGUGGCCGCGGUGGAGACAG	1.6
CCUGUGCUACACAUCGUAUGUACCGAAUCGGUUUUUUUGGGUUUUUUUGGUUUUUUUGGGAAAGUAUUAUGUUACGCCGUUCGGAUCUGC	-1.57
CACAGACAACACGCACCCACACAGACACAGAGGGAAGGGGUUGGGAUGGGGACAGGGUGCACAGCAGGGCGGGGUAGGACCCCAACCCCU	-0.964
